Experimental data pooled from the literature.
Protocols differ between the studies behind these lines. Values joined by “and” are separate records of one study, mostly repeats; a detail may differ. ± marks the error that the study gave.
VIPR2: Vasoactive intestinal polypeptide receptor 2 (VIPR2, Homo sapiens, UniProt P41587)
Chain of UniProt P41587 (whole entry, looked up): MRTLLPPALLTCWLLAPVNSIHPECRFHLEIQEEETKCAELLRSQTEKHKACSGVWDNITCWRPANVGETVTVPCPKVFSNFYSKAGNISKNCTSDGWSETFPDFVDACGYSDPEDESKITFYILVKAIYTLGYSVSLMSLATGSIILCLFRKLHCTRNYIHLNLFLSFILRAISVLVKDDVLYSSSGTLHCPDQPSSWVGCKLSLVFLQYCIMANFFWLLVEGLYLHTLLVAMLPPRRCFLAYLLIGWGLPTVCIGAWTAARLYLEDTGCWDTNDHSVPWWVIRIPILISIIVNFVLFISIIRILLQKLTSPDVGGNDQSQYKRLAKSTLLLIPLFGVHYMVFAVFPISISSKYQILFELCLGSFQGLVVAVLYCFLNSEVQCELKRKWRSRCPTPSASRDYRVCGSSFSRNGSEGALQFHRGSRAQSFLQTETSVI
Chain of UniProt Q9NNX6 (whole entry, looked up): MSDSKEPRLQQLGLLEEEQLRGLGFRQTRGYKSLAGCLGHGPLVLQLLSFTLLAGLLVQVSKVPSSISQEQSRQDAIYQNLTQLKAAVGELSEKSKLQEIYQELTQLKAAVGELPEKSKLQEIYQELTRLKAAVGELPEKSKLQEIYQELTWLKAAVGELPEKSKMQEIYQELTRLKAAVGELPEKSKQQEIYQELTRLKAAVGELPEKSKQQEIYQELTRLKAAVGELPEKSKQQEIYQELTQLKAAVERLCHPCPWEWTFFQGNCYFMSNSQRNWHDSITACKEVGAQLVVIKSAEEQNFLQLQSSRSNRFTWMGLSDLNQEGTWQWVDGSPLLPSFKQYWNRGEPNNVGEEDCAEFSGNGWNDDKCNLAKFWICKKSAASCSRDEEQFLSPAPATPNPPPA
Chain of UniProt P35367 (whole entry, looked up): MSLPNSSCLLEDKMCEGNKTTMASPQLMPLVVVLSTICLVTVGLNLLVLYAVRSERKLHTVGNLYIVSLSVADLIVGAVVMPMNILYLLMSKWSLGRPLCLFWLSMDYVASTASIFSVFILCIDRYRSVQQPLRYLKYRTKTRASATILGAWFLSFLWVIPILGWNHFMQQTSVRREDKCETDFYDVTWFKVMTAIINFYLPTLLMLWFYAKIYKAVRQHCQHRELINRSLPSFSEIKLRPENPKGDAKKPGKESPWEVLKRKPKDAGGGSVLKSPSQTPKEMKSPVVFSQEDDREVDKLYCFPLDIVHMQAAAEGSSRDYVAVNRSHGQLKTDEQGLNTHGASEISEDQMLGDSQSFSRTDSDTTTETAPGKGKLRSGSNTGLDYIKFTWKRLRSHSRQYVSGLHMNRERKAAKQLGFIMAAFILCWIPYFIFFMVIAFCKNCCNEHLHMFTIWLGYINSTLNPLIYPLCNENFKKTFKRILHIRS
Chain of UniProt P33533 (whole entry, looked up): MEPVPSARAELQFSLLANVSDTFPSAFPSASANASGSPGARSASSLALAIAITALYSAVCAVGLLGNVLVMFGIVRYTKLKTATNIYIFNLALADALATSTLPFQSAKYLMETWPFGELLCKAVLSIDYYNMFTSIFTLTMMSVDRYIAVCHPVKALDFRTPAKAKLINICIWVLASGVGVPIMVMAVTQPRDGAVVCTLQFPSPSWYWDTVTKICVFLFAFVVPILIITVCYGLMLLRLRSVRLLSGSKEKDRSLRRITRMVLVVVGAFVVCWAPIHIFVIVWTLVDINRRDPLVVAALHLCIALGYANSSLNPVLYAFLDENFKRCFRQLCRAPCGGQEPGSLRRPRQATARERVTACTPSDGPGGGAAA
Chain of UniProt Q13464 (whole entry, looked up): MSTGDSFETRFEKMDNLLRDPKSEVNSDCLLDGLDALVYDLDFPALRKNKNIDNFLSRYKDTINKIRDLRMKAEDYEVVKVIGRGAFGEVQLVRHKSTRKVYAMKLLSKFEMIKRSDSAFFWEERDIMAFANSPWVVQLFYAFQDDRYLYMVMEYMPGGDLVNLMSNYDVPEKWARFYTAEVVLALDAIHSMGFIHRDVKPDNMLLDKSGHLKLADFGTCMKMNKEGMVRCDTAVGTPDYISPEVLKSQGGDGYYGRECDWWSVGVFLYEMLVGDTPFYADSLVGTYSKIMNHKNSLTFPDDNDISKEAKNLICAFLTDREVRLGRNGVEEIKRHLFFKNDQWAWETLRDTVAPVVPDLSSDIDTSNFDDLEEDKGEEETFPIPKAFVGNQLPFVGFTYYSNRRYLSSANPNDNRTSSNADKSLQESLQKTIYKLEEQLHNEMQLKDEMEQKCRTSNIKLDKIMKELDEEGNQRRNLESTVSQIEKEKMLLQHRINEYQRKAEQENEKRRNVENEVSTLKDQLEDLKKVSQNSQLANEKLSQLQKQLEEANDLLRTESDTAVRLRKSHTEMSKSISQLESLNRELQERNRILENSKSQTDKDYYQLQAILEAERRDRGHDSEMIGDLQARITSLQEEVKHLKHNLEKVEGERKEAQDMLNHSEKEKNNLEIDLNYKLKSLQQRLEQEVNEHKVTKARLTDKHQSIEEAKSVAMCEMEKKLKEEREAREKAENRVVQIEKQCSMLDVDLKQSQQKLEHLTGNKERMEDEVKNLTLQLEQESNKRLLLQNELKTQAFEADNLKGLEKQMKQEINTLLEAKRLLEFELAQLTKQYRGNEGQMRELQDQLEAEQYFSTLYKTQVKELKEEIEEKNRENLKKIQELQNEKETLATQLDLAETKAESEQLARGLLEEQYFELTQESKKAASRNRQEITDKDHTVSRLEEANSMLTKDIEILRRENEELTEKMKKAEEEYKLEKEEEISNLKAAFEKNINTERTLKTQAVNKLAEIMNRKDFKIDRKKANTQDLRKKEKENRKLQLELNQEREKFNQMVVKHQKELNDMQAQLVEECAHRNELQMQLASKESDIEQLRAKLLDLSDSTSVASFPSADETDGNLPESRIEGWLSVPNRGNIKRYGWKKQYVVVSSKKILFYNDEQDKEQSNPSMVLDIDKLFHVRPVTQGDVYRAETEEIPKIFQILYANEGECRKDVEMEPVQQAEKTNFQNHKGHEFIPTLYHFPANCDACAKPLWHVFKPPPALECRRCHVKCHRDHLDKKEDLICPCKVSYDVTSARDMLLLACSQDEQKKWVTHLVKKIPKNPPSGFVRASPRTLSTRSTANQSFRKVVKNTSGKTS
Chain of UniProt Q14289 (whole entry, looked up): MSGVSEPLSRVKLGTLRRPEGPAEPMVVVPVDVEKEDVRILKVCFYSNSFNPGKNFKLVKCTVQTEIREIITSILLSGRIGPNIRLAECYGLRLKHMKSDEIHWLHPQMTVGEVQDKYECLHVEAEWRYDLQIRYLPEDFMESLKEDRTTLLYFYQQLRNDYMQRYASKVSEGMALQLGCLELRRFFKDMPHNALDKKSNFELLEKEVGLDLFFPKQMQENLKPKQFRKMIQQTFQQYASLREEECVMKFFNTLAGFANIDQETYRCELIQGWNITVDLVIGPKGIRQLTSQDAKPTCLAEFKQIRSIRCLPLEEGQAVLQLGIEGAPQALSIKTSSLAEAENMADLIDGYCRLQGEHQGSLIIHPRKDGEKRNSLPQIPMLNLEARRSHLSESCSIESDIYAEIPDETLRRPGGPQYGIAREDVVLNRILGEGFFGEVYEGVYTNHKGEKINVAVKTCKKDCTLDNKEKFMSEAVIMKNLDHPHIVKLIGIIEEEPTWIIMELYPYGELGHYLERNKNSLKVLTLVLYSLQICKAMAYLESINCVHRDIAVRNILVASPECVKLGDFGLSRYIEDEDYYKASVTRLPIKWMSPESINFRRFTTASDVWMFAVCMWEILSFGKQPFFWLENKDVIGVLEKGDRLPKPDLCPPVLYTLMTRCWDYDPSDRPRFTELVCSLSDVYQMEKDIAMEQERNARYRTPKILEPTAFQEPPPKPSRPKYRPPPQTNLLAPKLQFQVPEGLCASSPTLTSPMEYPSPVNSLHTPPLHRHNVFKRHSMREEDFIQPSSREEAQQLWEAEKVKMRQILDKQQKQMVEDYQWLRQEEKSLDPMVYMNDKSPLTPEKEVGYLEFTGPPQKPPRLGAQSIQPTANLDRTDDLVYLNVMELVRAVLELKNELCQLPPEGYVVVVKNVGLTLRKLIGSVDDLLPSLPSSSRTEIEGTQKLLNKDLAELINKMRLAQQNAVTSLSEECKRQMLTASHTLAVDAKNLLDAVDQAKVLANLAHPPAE
Chain of UniProt O43613 (whole entry, looked up): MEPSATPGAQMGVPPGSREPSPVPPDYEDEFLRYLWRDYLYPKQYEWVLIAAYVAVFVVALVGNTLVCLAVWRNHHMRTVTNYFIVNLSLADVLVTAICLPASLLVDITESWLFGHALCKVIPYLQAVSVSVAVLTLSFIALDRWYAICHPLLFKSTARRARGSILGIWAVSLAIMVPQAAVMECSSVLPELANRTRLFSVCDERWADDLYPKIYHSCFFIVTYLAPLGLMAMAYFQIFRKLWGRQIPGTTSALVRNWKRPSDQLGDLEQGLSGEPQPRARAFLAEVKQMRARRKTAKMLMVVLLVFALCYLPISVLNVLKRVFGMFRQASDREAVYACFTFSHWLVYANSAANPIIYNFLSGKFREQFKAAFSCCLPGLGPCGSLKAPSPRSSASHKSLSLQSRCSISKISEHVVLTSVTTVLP
Chain of UniProt P08908 (whole entry, looked up): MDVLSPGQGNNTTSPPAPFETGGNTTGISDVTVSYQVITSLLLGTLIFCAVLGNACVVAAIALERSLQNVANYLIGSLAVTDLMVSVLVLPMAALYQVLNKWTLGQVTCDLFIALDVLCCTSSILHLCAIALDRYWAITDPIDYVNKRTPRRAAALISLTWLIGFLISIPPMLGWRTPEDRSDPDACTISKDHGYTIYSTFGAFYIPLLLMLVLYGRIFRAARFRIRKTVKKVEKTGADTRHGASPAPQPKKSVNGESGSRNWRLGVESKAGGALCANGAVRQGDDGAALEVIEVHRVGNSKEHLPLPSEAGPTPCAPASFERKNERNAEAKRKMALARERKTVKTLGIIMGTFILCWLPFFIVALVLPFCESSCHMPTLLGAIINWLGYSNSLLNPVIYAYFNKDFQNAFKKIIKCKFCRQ

SMILES	target or system	assay	test system	setting	scale	endpoint	value
CSCC[C@H](NC(=O)[C@H](CCC(N)=O)NC(=O)[C@H](CCCCN)NC(=O)[C@H](CCCNC(=N)N)NC(=O)[C@H](Cc1ccc(O)cc1)NC(=O)[C@H](CCCNC(=N)N)NC(=O)[C@H](CO)NC(=O)[C@H](Cc1ccc(O)cc1)NC(=O)[C@H](CO)NC(=O)[C@H](CC(=O)O)NC(=O)[C@@H](NC(=O)[C@@H](N)Cc1ccccc1)[C@@H](C)O)C(=O)N[C@@H](C)C(=O)N[C@H](C(=O)N[C@@H](CCCCN)C(=O)N[C@@H](CCCCN)C(=O)N[C@@H](Cc1ccc(O)cc1)C(=O)N[C@@H](CC(C)C)C(=O)N[C@@H](C)C(=O)N[C@@H](C)C(=O)N[C@H](C(=O)N[C@@H](CC(C)C)C(=O)NCC(=O)N[C@@H](CCCCN)C(=O)N[C@@H](CCCNC(=N)N)C(=O)N[C@@H](Cc1ccc(O)cc1)C(=O)N[C@@H](CCCCN)C(=O)N[C@@H](CCC(N)=O)C(=O)N[C@@H](CCCNC(=N)N)C(=O)N[C@H](C(=O)N[C@@H](CCCCN)C(=O)N[C@@H](CC(N)=O)C(=O)N[C@@H](CCCCn1cc(C[C@H](NC(=O)CNC(=O)[C@H](CO)NC(=O)[C@H](CCCNC(=N)N)NC(=O)[C@H](CO)NC(=O)[C@H](CC(C)C)NC(=O)[C@H](CC(C)C)NC(=O)CNC(=O)[C@H](C)NC(=O)[C@H](CC(C)C)NC(=O)[C@H](CCCNC(=N)N)NC(=O)[C@H](Cc2c[nH]cn2)NC(=O)[C@@H](NC(=O)[C@@H](N)C(C)C)[C@@H](C)O)C(=O)N[C@H](C(=O)N[C@H](C(=O)N[C@@H](CCCCN)C(=O)N[C@@H](CC(N)=O)C(=O)N[C@@H](CC(N)=O)C(=O)N[C@@H](Cc2ccccc2)C(=O)N[C@H](C(=O)N2CCC[C@H]2C(=O)N[C@H](C(=O)N[C@@H](CC(N)=O)C(=O)N[C@H](C(=O)NCC(=O)N[C@@H](CO)C(=O)N[C@@H](CCCCN)C(=O)N[C@@H](C)C(=O)N[C@@H](Cc2ccccc2)C(N)=O)C(C)C)[C@@H](C)O)C(C)C)C(C)C)C(C)C)nn1)C(N)=O)C(C)C)C(C)C)C(C)C	VIPR2	cAMP accumulation, antagonist		together with: VIP		Kb	0.148 µM
O=C1NC2(CC2)COc2ncc(F)cc2[C@H]2COCCN2c2ccn3ncc1c3n2			Sprague-Dawley rat, female, serum	oral, 5 mg/kg/day, end of treatment, 4-week subacute toxicity		serum sodium	145 ± 1 mmol/L
N=C(N)NCc1cn([C@@H]2[C@@H](OCCn3cc(-c4cc(OCCOCCO)c(C#Cc5cc(OCCOCCO)c(C#Cc6cc(OCCOCCO)c(-c7cn(CCO[C@H]8O[C@H](CO)[C@@H](O)[C@H](O)[C@@H]8n8cc(CNC(=N)N)nn8)nn7)cc6OCCOCCO)cc5OCCOCCO)cc4OCCOCCO)nn3)O[C@H](CO)[C@@H](O)[C@@H]2O)nn1	CD209 antigen (CD209, Homo sapiens, UniProt Q9NNX6)	binding				Kd	10.3 µM and 9.31 µM
O=C(O)CCn1c(=O)oc2cc(Cl)c(Cl)cc21	Histamine H1 receptor (HRH1, Homo sapiens, UniProt P35367)	antagonist		median value		IC50	> 25.1 µM
Cc1cc(O)cc(C)c1CCC(=O)N[C@@H]1C/C=C\CC[C@@H](C(N)=O)NC(=O)[C@H](Cc2ccccc2)NC(=O)[C@H](Cc2ccccc2)NC1=O	Delta-type opioid receptor (Oprd1, Rattus norvegicus, UniProt P33533)	ligand displacement, radioligand		cell membranes		Ki	0.0863 µM
CC(C)[C@H]1NC(=O)C[C@H]2/C=C/CCSSC[C@@H](NC1=O)C(=O)N[C@H](Cc1cccc3ccccc13)C(=O)NCC(=O)O2	Protein-tyrosine kinase 2-beta (PTK2B, Homo sapiens, UniProt Q14289)	enzyme activity, inhibitor		10 µM		inhibition	1.4%
CC(C)(C)C(=O)OCOP(=O)(OCOC(=O)C(C)(C)C)C1CCCN(O)C1=O (stereo not drawn)	NCI-H226					log GI50	-6 log M
COc1ccccc1-c1n[nH]c2nc(NC3CCN(C(=O)Cc4ccc(F)cc4F)CC3)ncc12		bead binding, competition bead pull-down, item: LINJ.30.2340	Leishmania donovani extract	10 µM	relative to: vehicle	relative abundance	0.98
CN(C)[C@H]1C[C@@]23CC[C@@]4(O2)C(=CC[C@]2(C)[C@@H](c5ccc6ccncc6c5)CC[C@H]24)C=C3[C@@H](O)[C@@H]1O	Ribosomal protein S6 kinase alpha-1, kinase domain 2 (RPS6KA1, Homo sapiens, UniProt Q15418)	ATP probe labelling, inhibitor, KiNativ profiling		1 µM		inhibition	-9.5%
CSCC[C@H](NC(=O)[C@H](CCC(N)=O)NC(=O)[C@H](CCCCN)NC(=O)[C@H](CCCNC(=N)N)NC(=O)[C@H](Cc1ccc(O)cc1)NC(=O)[C@H](CCCNC(=N)N)NC(=O)[C@H](CO)NC(=O)[C@H](Cc1ccc(O)cc1)NC(=O)[C@H](CO)NC(=O)[C@H](CC(=O)O)NC(=O)[C@@H](NC(=O)[C@@H](N)Cc1ccccc1)[C@@H](C)O)C(=O)N[C@@H](C)C(=O)N[C@H](C(=O)N[C@@H](CCCCN)C(=O)N[C@@H](CCCCn1cc(C[C@H](NC(=O)CNC(=O)[C@H](CO)NC(=O)[C@H](CCCNC(=N)N)NC(=O)[C@H](CO)NC(=O)[C@H](CC(C)C)NC(=O)[C@H](CC(C)C)NC(=O)CNC(=O)[C@H](C)NC(=O)[C@H](CC(C)C)NC(=O)[C@H](CCCNC(=N)N)NC(=O)[C@H](Cc2c[nH]cn2)NC(=O)[C@@H](NC(=O)[C@@H](N)C(C)C)[C@@H](C)O)C(=O)N[C@H](C(=O)N[C@H](C(=O)N[C@@H](CCCCN)C(=O)N[C@@H](CC(N)=O)C(=O)N[C@@H](CC(N)=O)C(=O)N[C@@H](Cc2ccccc2)C(=O)N[C@H](C(=O)N2CCC[C@H]2C(=O)N[C@H](C(=O)N[C@@H](CC(N)=O)C(=O)N[C@H](C(=O)NCC(=O)N[C@@H](CO)C(=O)N[C@@H](CCCCN)C(=O)N[C@@H](C)C(=O)N[C@@H](Cc2ccccc2)C(N)=O)C(C)C)[C@@H](C)O)C(C)C)C(C)C)C(C)C)nn1)C(=O)N[C@@H](Cc1ccc(O)cc1)C(=O)N[C@@H](CC(C)C)C(=O)N[C@@H](C)C(=O)N[C@@H](C)C(=O)N[C@H](C(=O)N[C@@H](CC(C)C)C(=O)NCC(=O)N[C@@H](CCCCN)C(=O)N[C@@H](CCCNC(=N)N)C(=O)N[C@@H](Cc1ccc(O)cc1)C(=O)N[C@@H](CCCCN)C(=O)N[C@@H](CCC(N)=O)C(=O)N[C@@H](CCCNC(=N)N)C(=O)N[C@H](C(=O)N[C@@H](CCCCN)C(=O)N[C@@H](CC(N)=O)C(=O)N[C@@H](CCCCN)C(N)=O)C(C)C)C(C)C)C(C)C	VIPR2	cAMP accumulation, antagonist	COS-7 transfected	second of 2 determinations, together with: PACAP-38		Kb	0.646 µM
C[C@@H](Cc1ccsc1)NC(=O)NC[C@H](Cc1ccc(O)cc1)N(C)C	5-hydroxytryptamine receptor 1A (HTR1A, Homo sapiens, UniProt P08908)	cell-free assay				Ki	> 100 µM
CSCC[C@H](NC(=O)[C@H](CCC(N)=O)NC(=O)[C@H](CCCCN)NC(=O)[C@H](CCCNC(=N)N)NC(=O)[C@H](Cc1ccc(O)cc1)NC(=O)[C@H](CCCNC(=N)N)NC(=O)[C@H](CO)NC(=O)[C@H](Cc1ccc(O)cc1)NC(=O)[C@H](CO)NC(=O)[C@H](CC(=O)O)NC(=O)[C@@H](NC(=O)[C@@H](N)Cc1ccccc1)[C@@H](C)O)C(=O)N[C@@H](C)C(=O)N[C@H](C(=O)N[C@@H](CCCCN)C(=O)N[C@@H](CCCCN)C(=O)N[C@@H](Cc1ccc(O)cc1)C(=O)N[C@@H](CC(C)C)C(=O)N[C@@H](C)C(=O)N[C@@H](C)C(=O)N[C@H](C(=O)N[C@@H](CC(C)C)C(=O)NCC(=O)N[C@@H](CCCCN)C(=O)N[C@@H](CCCNC(=N)N)C(=O)N[C@@H](Cc1ccc(O)cc1)C(=O)N[C@@H](CCCCN)C(=O)N[C@@H](CCC(N)=O)C(=O)N[C@@H](CCCCn1cc(C[C@H](NC(=O)CNC(=O)[C@H](CO)NC(=O)[C@H](CCCNC(=N)N)NC(=O)[C@H](CO)NC(=O)[C@H](CC(C)C)NC(=O)[C@H](CC(C)C)NC(=O)CNC(=O)[C@H](C)NC(=O)[C@H](CC(C)C)NC(=O)[C@H](CCCNC(=N)N)NC(=O)[C@H](Cc2c[nH]cn2)NC(=O)[C@@H](NC(=O)[C@@H](N)C(C)C)[C@@H](C)O)C(=O)N[C@H](C(=O)N[C@H](C(=O)N[C@@H](CCCCN)C(=O)N[C@@H](CC(N)=O)C(=O)N[C@@H](CC(N)=O)C(=O)N[C@@H](Cc2ccccc2)C(=O)N[C@H](C(=O)N2CCC[C@H]2C(=O)N[C@H](C(=O)N[C@@H](CC(N)=O)C(=O)N[C@H](C(=O)NCC(=O)N[C@@H](CO)C(=O)N[C@@H](CCCCN)C(=O)N[C@@H](C)C(=O)N[C@@H](Cc2ccccc2)C(N)=O)C(C)C)[C@@H](C)O)C(C)C)C(C)C)C(C)C)nn1)C(=O)N[C@H](C(=O)N[C@@H](CCCCN)C(=O)N[C@@H](CC(N)=O)C(=O)N[C@@H](CCCCN)C(N)=O)C(C)C)C(C)C)C(C)C	VIPR2	cAMP accumulation, antagonist		together with: VIP		Kb	0.447 µM
O=C(N[C@@H]1c2ccccc2C[C@H]1N1CCCC1)c1ccc(-c2ccnc3[nH]ccc23)nc1	Rho-associated protein kinase 1 (ROCK1, Homo sapiens, UniProt Q13464)	binding, competition with immobilised ligand				Kd	0.005 µM
C=C1[C@@H](O)C[C@H]2C(C)(C)C[C@H](F)C[C@]2(C)[C@H]1C[C@H](O)[C@H]1CC(=O)NC1=O	ribosome, Saccharomyces cerevisiae, 80S, E site	smFRET		pH 7.5, 23 °C, 5 mM MgCl2		Kd	3.8 ± 1.3 µM
CN(C)[C@H](CNC(=O)/C=C/c1cccc2ccccc12)Cc1ccc(O)cc1	Orexin/Hypocretin receptor type 1 (HCRTR1, Homo sapiens, UniProt O43613)					Ki	> 50 µM

For quick reference, copied from above:
SMILES	target or system	assay	test system	setting	scale	endpoint	value
Cc1cc(O)cc(C)c1CCC(=O)N[C@@H]1C/C=C\CC[C@@H](C(N)=O)NC(=O)[C@H](Cc2ccccc2)NC(=O)[C@H](Cc2ccccc2)NC1=O	Delta-type opioid receptor (Oprd1, Rattus norvegicus, UniProt P33533)	ligand displacement, radioligand		cell membranes		Ki	0.0863 µM
COc1ccccc1-c1n[nH]c2nc(NC3CCN(C(=O)Cc4ccc(F)cc4F)CC3)ncc12		bead binding, competition bead pull-down, item: LINJ.30.2340	Leishmania donovani extract	10 µM	relative to: vehicle	relative abundance	0.98
